Published values pooled from the literature.
Compare with care: the assays were run in different laboratories.
B1: MED1 1-566 (Saccharomyces cerevisiae, UniProt Q12321); chain MVEGDSYVETLDSMIELFKDYKPGSITLENITRLCQTLGLESFTEELSNELSRLSTASKIIVIDVDYNKKQDRIQDVKLVLASNFDNFDYFNQRDGEHEKSNILLNSLTKYPDLKAFHNNLKFLYLLDAYSHIESDSTSHNNGSSDKSLDSSNASFNNQGKLDLFKYFTELSHYIRQCFQDNCCDFKVRTNLNDKFGIYILTQGINGKEVPLAKIYLEENKSDSQYRFYEYIYSQETKSWINESAENFSNGISLVMEIVANAKESNYTDLIWFPEDFISPELIIDKVTCSSNSSSSPPIIDLFSNNNYNSRIQLMNDFTTKLINIKKFDISNDNLDLISEILKWVQWSRIVLQNVFKLVSTPSSNSNSSELEPDYQAPFSTSTKDKNSSTSNTEPIPRSNRHGSVVEASRRRRSSTNKSKRPSITEAMMLKEEGLQQFNLHEILSEPAIEEENGDSIKEHSTTMDGANDLGFTASVSNQENAGTDIVMEDHGVLQGTSQNYGTATADDADIEMKDVSSKPSKPESSVLQLIVSEDHIILDTISECNLYDDVKCWSKFIEKFQDIVS
B2: human hnRNP F; sequence looked up; chain MMLGPEGGEGFVVKLRGLPWSCSVEDVQNFLSDCTIHDGAAGVHFIYTREGRQSGEAFVELGSEDDVKMALKKDRESMGHRYIEVFKSHRTEMDWVLKHSGPNSADSANDGFVRLRGLPFGCTKEEIVQFFSGLEIVPNGITLPVDPEGKITGEAFVQFASQELAEKALGKHKERIGHRYIEVFKSSQEEVRSYSDPPLKFMSVQRPGPYDRPGTARRYIGIVKQAGLERMRPGAYSTGYGGYEEYSGLSDGYGFTTDLFGRDLSYCLSGMYDHRYGDSEFTVQSTTGHCVHMRGLPYKATENDIYNFFSPLNPVRVHIEIGPDGRVTGEADVEFATHEEAVAAMSKDRANMQHRYIELFLNSTTGASNGAYSSQVMQGMGVSAAQATYSGLESQSVSGCYGAGYSGQNSMGGYD
B3: RAD18 267-402 (Homo sapiens, UniProt Q9NS91); sequence looked up; chain IQGNKQQLIKRHQEFVHMYNAQCDALHPKSAAEIVREIENIEKTRMRLEASKLNESVMVFTKDQTEKEIDEIHSKYRKKHKSEFQLLVDQARKGYKKIAGMSQKTVTITKEDESTEKLSSVCMGQEDNMTSVTNHF
B4: Rai14 17-400 (Mus musculus, UniProt Q9EP71); sequence looked up; chain NKNDDRLLQAVENGDAEKVASLLGKKGASATKHDSEGKTAFHLAAAKGHVECLKVMVTHGVDVTAQDSSGHSALHVAAKNGHPECIRKLLQYKSPAENIDNSGKTALHYAAAQGCLQAVQLLCEHKSPINLKDLDGNIPLLVAVQNGHSEACHFLLDHGADVNSRDKNGRTALMLACETGSSNTVDALIKKGADLSLVDSLGHNALHYSKLSENAGIQNLLLSKISQDADLKTPTKPKQHDQVSKISSERSGTPKKRKAPPPPISPTQLSDVSSPRSITSTPLSGKESVFFAEAPFKAEISSIQENKDRLSDSTAGADSLLDISSEADQQDLLVLLQAKVASLTLHNKELQDKLQAKSPKDKEAEADLSFQSFHSTQTDLAPSP
B5: POL32 1-350 (Saccharomyces cerevisiae, UniProt P47110); chain MDQKASYFINEKLFTEVKPVLFTDLIHHLKIGPSMAKKLMFDYYKQTTNAKYNCVVICCYKDQTIKIIHDLSNIPQQDSIIDCFIYAFNPMDSFIPYYDIIDQKDCLTIKNSYELKVSESSKIIERTKTLEEKSKPLVRPTARSKTTPEETTGRKSKSKDMGLRSTALLAKMKKDRDDKETSRQNELRKRKEENLQKINKQNPEREAQMKELNNLFVEDDLDTEEVNGGSKPNSPKETDSNDKDKNNDDLEDLLETTAEDSLMDVPKIQQTKPSETEHSKEPKSEEEPSSFIDEDGYIVTKRPATSTPPRKPSPVVKRALSSSKKQETPSSNKRLKKQGTLESFFKRKAK
B6: LIN28A (Homo sapiens, UniProt Q9H9Z2); sequence looked up; chain MGSVSNQQFAGGCAKAAEEAPEEAPEDAARAADEPQLLHGAGICKWFNVRMGFGFLSMTARAGVALDPPVDVFVHQSKLHMEGFRSLKEGEAVEFTFKKSAKGLESIRVTGPGGVFCIGSERRPKGKSMQKRRSKGDRCYNCGGLDHHAKECKLPPQPKKCHFCQSISHMVASCPLKAQQGPSAQGKPTYFREEEEEIHSPTLLPEAQN
B7: NOTCH3 EGF5-12 197-505 (Homo sapiens, UniProt Q9UM47); sequence looked up; chain PAVPCAPSPCRNGGTCRQSGDLTYDCACLPGFEGQNCEVNVDDCPGHRCLNGGTCVDGVNTYNCQCPPEWTGQFCTEDVDECQLQPNACHNGGTCFNTLGGHSCVCVNGWTGESCSQNIDDCATAVCFHGATCHDRVASFYCACPMGKTGLLCHLDDACVSNPCHEDAICDTNPVNGRAICTCPPGFTGGACDQDVDECSIGANPCEHLGRCVNTQGSFLCQCGRGYTGPRCETDVNECLSGPCRNQATCLDRIGQFTCICMAGFTGTYCEVDIDECQSSPCVNGGVCKDRVNGFSCTCPSGFSGSTCQ
B8: VPS71 (Saccharomyces cerevisiae, UniProt Q03433); sequence looked up; chain MKALVEEIDKKTYNPDIYFTSLDPQARRYTSKKINKQGTISTSRPVKRINYSLADLEARLYTSRSEGDGNSISRQDDRNSKNSHSFEERYTQQEILQSDRRFMELNTENFSDLPNVPTLLSDLTGVPRDRIESTTKPISQTSDGLSALMGGSSFVKEHSKYGHGWVLKPETLREIQLSYKSTKLPKPKRKNTNRIVALKKVLSSKRNLHSFLDSALLNLMDKNVIYHNVYNKRYFKVLPLITTCSICGGYDSISSCVNCGNKICSVSCFKLHNETRCRNR
B9: CLTA (Bos taurus, UniProt P04973); sequence looked up; chain MAELDPFGVPAGGPALGNGVAGEEDPAAAFLAQQESEIAGIENDEAFAILDGGAPGSQPHGEPPGIPDAVDGVTNGDYYQESNGPTDSYAAISQVDRLQSEPESIRKWREEQTERLEALDANSRKQEAEWKEKAIKELDEWYARQDEQLQKTKANNRVADEAFYKQPFADVIGYVTNINHPCYSLEQAAEEAFVNDIEESSPGTEWERVARLCDFNPKSSKQAKDVSRMRSVLISLKQAPLVH
B10: RB1CC1 1490-1594 (Homo sapiens, UniProt Q8TDY2); chain SRHSEKIAIRDFQVGDLVLIILDERHDNYVLFTVSPTLYFLHSESLPALDLKPGEGASGASRRPWVLGKVMEKEYCQAKKAQNRFKVPLGTKFYRVKAVSWNKKV
B11: VPH1/STV1 chimera 1-123 (Saccharomyces cerevisiae); sequence looked up; chain MAEKEEAIFRSAEMALVQFYIPQEISRDSAYTLGQLGLVQFRDLNSKVRAFQRTFVNEIRRLDNVERQYRYFYSLLKKHDIKLYEGDTDKYLDGSGELYVPPSGSVIDDYVRNASYLEERLIQLDESLDSLRSKLNDLLEQRQVIFECSKFIEVNPGIAGRATNPEIEQEERDVDEFRMTPDDISETLSDAFSFDDETPQDRGALGNDLTRNQSVEDLSFLEQGYQHRYMITGSIRRTKVDILNRILWRLLRGNLIFQNFPIEEPLLEGKEKVEKDCFIIFTHGETLLKKVKRVIDSLNGKIVSLNTRSSELVDTLNRQIDDLQRILDTTEQTLESELYAIAKELDSWFQDVTREKAIFEILNKSNYDTNRKILIAEGWIPRDELATLQARLGEMIARLGIDVPSIIQVLD
B12: PFD3 (Arabidopsis thaliana, UniProt P57741); sequence looked up; chain MSSSSPSGSGSDLTERRGIPAAKFIQDVETYLSQSGLDPNSALAFHQERLQQYKVVEMKLLAQQRDLQAKIPDIEKCLEVVATLEAKKGTGEALLADFEVSEGIYSRACIEDTDSVCLWLGANVMLEYSCEEASALLKNNLENAKASLEVLVADLQFLRDQVTVTQVTIARVYNWDVHQRRVKQVTPTAIAVADS
B13: RBCK1 260-510 (Homo sapiens, UniProt Q9BYM8-1); chain GNYLQHVQLDQRSLVLNTEPAECPVCYSVLAPGEAVVLRECLHTFCRECLQGTIRNSQEAEVSCPFIDNTYSCSGKLLEREIKALLTPEDYQRFLDLGISIAENRSAFSYHCKTPDCKGWCFFEDDVNEFTCPVCFHVNCLLCKAIHEQMNCKEYQEDLALRAQNDVAARQTTEMLKVMLQQGEAMRCPQCQIVVQKKDGCDWIRCTVCHTEICWVTKGPRWGPGGPGDTSGGCRCRVNGIPCHPSCQNCH
B14: GP1BA 17-306 D235Y/M239V (Homo sapiens, UniProt P07359); sequence looked up; chain HPICEVSKVASHLEVNCDKRNLTALPPDLPKDTTILHLSENLLYTFSLATLMPYTRLTQLNLDRCELTKLQVDGTLPVLGTLDLSHNQLQSLPLLGQTLPALTVLDVSFNRLTSLPLGALRGLGELQELYLKGNELKTLPPGLLTPTPKLEKLSLANNNLTELPAGLLNGLENLDTLLLQENSLYTIPKGFFGSHLLPFAFLHGNPWLCNCEILYFRRWLQDNAENVYVWKQGVYVKAVTSNVASVQCDNSDKFPVYKYPGKGCPTLGDEGDTDLYDYYPEEDTEGDKVR
B15: ERRFI1 330-399 F352A (human, UniProt Q9UJM3); N-terminal FITC; sequence looked up; chain SRTPSPKSLPSYLNGVMPPTQSAAPDPKYVSSKALQRQNSEGSASKVPCILPIIENGKKVSSTHYYLLPE
B16: EFR3A 721-791 (Homo sapiens, UniProt Q14156); chain SNTEEITFEALKKAIDTSGMEEQEKEKRRLVIEKFQKAPFEEIAAQCESKANLLHDRLAQILELTIRPPPS
B17: mepS (Escherichia coli, UniProt P0AFV4); sequence looked up; chain CSANNTAKNMHPETRAVGSETSSLQASQDEFENLVRNVDVKSRIMDQYADWKGVRYRLGGSTKKGIDCSGFVQRTFREQFGLELPRSTYEQQEMGKSVSRSNLRTGDLVLFRAGSTGRHVGIYIGNNQFVHASTSSGVIISSMNEPYWKKRYNEARRVLSRS
Chain of UniProt Q9LIE5 (whole entry, looked up): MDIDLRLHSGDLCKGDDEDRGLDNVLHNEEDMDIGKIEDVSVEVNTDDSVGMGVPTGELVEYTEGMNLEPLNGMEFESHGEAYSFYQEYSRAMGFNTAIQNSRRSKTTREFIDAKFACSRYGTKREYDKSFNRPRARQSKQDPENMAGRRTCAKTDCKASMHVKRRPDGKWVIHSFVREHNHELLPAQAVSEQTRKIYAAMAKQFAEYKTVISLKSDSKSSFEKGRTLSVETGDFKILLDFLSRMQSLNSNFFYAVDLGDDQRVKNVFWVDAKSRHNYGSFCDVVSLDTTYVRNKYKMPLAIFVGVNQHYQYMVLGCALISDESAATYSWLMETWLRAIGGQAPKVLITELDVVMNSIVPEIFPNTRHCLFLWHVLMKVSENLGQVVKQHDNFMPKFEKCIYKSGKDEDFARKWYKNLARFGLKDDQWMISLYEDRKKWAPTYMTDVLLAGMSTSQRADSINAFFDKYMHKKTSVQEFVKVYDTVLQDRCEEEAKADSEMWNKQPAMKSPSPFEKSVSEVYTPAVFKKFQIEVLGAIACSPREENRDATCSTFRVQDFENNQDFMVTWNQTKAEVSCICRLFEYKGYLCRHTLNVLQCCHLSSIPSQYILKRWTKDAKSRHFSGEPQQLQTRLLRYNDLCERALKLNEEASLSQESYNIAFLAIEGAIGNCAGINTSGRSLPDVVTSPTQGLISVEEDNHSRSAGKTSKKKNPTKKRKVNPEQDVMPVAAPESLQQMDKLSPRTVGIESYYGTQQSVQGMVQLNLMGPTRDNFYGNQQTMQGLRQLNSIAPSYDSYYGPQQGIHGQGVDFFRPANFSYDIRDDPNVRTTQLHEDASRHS
Chain of UniProt G1UBD1 (whole entry, looked up): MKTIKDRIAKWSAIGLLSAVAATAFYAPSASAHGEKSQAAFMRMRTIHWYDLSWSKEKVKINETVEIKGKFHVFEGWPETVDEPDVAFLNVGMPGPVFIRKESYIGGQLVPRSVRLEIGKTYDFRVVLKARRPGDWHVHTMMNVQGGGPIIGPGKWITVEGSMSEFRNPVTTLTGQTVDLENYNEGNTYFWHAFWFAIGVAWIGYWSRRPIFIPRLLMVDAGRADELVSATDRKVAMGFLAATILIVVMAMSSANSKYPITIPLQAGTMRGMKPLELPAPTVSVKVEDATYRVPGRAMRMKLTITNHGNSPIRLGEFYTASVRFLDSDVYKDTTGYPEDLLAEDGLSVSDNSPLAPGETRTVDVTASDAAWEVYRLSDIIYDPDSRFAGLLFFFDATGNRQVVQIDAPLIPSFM
Chain of UniProt Q9NR61 (whole entry, looked up): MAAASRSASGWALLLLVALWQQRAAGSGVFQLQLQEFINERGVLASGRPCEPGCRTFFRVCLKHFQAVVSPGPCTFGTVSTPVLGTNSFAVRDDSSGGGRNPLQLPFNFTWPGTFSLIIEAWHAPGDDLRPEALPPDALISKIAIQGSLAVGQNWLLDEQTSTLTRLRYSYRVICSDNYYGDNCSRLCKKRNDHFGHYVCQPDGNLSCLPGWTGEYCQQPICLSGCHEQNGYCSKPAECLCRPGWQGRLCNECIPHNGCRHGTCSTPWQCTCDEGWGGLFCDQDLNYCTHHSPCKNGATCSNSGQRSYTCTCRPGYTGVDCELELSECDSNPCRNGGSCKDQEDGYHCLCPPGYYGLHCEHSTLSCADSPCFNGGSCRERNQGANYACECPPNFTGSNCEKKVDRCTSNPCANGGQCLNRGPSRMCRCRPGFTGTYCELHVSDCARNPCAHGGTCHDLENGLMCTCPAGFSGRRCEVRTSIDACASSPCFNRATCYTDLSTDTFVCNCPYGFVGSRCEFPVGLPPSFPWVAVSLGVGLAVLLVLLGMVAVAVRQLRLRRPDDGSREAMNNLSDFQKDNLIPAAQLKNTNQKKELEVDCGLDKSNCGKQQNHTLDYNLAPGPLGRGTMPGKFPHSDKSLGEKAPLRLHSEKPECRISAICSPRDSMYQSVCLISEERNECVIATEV
Chain of UniProt Q13137 (whole entry, looked up): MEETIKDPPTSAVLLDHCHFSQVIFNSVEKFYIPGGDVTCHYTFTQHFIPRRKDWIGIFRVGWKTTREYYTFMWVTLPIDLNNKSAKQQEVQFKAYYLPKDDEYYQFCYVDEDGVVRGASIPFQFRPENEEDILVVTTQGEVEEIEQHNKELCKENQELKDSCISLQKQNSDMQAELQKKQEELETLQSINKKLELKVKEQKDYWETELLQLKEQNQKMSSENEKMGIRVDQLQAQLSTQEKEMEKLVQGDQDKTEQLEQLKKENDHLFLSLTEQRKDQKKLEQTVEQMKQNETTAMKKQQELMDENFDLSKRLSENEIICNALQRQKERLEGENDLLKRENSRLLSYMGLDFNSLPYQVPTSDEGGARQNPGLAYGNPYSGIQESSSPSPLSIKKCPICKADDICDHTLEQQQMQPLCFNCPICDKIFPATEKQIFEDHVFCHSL
Chain of UniProt P47104 (whole entry, looked up): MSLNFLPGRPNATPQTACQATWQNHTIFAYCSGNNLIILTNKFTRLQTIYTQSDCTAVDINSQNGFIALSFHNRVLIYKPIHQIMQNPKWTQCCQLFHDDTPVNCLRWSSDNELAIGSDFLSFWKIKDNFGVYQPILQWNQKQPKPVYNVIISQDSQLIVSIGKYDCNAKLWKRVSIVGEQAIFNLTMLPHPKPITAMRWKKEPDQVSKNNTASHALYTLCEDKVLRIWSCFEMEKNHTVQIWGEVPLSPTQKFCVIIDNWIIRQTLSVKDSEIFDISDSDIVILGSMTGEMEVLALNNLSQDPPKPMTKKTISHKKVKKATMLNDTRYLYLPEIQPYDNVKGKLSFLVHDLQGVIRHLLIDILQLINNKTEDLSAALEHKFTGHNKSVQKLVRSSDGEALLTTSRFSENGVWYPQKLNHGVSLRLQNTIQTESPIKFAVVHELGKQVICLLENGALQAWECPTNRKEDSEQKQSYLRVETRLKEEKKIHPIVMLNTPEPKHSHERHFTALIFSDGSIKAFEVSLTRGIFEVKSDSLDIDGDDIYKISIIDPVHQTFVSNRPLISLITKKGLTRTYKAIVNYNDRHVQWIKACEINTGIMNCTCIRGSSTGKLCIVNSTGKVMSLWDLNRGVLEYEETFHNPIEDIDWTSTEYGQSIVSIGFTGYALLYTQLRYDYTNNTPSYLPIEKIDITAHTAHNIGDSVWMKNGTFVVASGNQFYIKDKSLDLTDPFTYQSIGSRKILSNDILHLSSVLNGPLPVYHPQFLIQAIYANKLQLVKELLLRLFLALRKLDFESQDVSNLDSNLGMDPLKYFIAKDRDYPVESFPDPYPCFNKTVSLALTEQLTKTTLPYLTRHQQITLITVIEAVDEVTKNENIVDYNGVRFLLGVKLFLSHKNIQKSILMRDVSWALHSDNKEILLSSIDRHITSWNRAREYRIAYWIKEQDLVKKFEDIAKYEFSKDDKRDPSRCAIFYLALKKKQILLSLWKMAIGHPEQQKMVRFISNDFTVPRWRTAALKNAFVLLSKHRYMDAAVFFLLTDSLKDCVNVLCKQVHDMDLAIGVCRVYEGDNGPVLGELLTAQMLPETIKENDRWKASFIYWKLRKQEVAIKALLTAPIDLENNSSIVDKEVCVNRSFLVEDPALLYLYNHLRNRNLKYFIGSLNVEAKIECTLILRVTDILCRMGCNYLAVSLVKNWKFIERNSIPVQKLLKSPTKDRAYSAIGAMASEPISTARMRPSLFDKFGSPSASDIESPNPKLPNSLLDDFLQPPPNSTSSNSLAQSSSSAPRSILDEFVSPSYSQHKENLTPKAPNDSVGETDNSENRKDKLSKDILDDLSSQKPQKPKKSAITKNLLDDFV
Chain of UniProt P53114 (whole entry, looked up): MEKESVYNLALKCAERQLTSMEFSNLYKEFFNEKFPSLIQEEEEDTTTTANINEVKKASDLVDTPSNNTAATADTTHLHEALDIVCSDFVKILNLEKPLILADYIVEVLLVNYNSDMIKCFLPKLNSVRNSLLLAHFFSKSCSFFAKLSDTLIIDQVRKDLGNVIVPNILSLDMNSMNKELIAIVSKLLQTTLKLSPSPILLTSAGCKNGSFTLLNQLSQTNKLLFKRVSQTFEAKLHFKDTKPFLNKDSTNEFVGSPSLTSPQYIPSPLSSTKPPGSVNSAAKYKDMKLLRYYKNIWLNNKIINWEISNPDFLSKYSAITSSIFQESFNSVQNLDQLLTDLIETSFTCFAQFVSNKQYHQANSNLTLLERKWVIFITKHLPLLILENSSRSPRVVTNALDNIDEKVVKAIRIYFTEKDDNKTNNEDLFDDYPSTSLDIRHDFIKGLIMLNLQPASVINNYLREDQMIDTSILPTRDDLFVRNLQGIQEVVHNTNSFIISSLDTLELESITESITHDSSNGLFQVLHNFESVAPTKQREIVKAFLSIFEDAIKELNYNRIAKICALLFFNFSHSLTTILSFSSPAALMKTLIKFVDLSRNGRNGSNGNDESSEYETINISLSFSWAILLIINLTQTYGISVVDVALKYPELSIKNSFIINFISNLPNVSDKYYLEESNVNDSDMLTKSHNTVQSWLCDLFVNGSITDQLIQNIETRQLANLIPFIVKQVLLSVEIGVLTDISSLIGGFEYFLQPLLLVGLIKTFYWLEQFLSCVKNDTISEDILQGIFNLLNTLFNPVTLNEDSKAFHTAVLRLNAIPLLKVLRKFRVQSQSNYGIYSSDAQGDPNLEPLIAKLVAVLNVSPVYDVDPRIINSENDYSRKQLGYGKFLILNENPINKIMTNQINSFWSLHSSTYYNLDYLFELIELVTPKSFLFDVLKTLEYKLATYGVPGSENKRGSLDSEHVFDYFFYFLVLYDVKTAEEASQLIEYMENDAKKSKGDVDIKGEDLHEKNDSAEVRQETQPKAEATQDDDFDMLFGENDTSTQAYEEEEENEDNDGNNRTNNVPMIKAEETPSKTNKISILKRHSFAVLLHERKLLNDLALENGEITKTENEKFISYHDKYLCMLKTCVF

Substance | tested on | test | system | conditions | scale | endpoint | result
B1 (MED1 1-566) | NUT1 1-1132 (Saccharomyces cerevisiae, UniProt P53114) | cryo-EM | – | – | – | binding | binds
B2 (human hnRNP F) | CYB5R4 knockout human cells | PP4 interaction, 3xFLAG-PP4C IP-MS | – | concentration not given | relative to: CYB5R4 KO over parental | log2 fold change | 0.38
Sce (Drosophila melanogaster, UniProt Q9VB08) | Psc (Drosophila melanogaster, UniProt P35820) | co-IP | – | – | – | binding | binds
B3 (RAD18 267-402) | MAGEA4 101-312 E225A (Homo sapiens, UniProt P43358) | TR-FRET | – | – | – | binding | binds
B4 (Rai14 17-400) | Pacsin1 (Rattus norvegicus, UniProt Q9Z0W5) | co-sedimentation | – | – | – | binding | binds
UGUUAUUUU (ssRNA) | U2AF2 148-342 (Homo sapiens, UniProt P26368) | sequencing of bound RNA | RNA | motif only | – | Kd | 3.23 µM
VHGAWDEWSPWSLCSSTCGRGFRDRTRTCRPPQFGGNPCEGPEKQTKFCNIALCP (ADGRB1 TSR3 408-462 (Mus musculus, UniProt Q3UHD1-1); O-fucose-glucose/C-mannosyl; sequence looked up) | Rtn4r 27-310 (Mus musculus, UniProt Q99PI8) | SEC | – | – | – | binding | binds
ASEFFVDGLDSDERTLEHFKRWLQPDKVAI (CCDC32 121-150 (Mus musculus, UniProt Q8BS39)) | Ap2m1 122-435 (Mus musculus, UniProt P84091) | pull-down | – | – | – | binding | binds
B5 (POL32 1-350) | REV1 (Saccharomyces cerevisiae, UniProt P12689) | cryo-EM | – | – | – | binding | binds
B6 (LIN28A) | TUT4 202-1313 (Homo sapiens, UniProt Q5TAX3) | cryo-EM | – | – | – | binding | binds
B7 (NOTCH3 EGF5-12 197-505) | DLL4 27-400 (Homo sapiens, UniProt Q9NR61) | SPR | – | – | – | binding | binds
pmoA (Methylococcus capsulatus, UniProt Q607G3) | pmoB 33-414 (Methylococcus capsulatus, UniProt G1UBD1) | cryo-EM | – | – | – | binding | binds
B8 (VPS71) | SWC3 (Saccharomyces cerevisiae, UniProt P31376) | cryo-EM | – | – | – | binding | binds
B9 (CLTA) | CLTC (Bos taurus, UniProt P49951) | ELISA | – | – | – | binding | binds
B10 (RB1CC1 1490-1594) | CALCOCO2 128-316 (Homo sapiens, UniProt Q13137) | SEC | – | – | – | binding | binds
B11 (VPH1/STV1 chimera 1-123) | RAV1 679-898 (Saccharomyces cerevisiae, UniProt P47104) | pull-down | – | – | – | binding | binds
B12 (PFD3) | FHY3 (Arabidopsis thaliana, UniProt Q9LIE5) | pull-down | – | – | – | binding | binds
B13 (RBCK1 260-510) | linear di-ubiquitin two Ub units (UniProt P0CG48) | ITC | – | 25 °C | – | binding | binds
BIN2 (Arabidopsis thaliana, UniProt Q39011) | PCK1 S62A/T66A (Arabidopsis thaliana, UniProt Q9T074) | BLI | – | without ATP | – | binding | binds
B14 (GP1BA 17-306 D235Y/M239V) | VWF mature, recombinant (Homo sapiens, UniProt P04275) | ELISA | – | – | – | binding | binds
B15 (ERRFI1 330-399 F352A) | EGFR 696-1022 (Homo sapiens, UniProt P00533) | fluorescence polarization | – | apparent | – | binding | binds
B16 (EFR3A 721-791) | PI4KA/TTC7B/FAM126A FAM126A (Homo sapiens) | SEC | – | – | – | binding | binds
B17 (mepS) | nlpI (Escherichia coli, UniProt P0AFB1) | pull-down | – | – | – | binding | binds
